Published values from different studies.
Each line is one published result; not all experiments were run side by side. ± gives the spread as reported.

Structure (SMILES) | test | test system | setting | scale | measurement | result
CSCC[C@H](NC(=O)[C@H](CC(C)C)NC(=O)[C@H](Cc1c[nH]cn1)NC(=O)CNC(=O)[C@@H](NC(=O)[C@H](C)NC(=O)[C@H](Cc1c[nH]c2ccccc12)NC(=O)[C@H](CCC(N)=O)NC(=O)CCCCCNC(=O)CNC(=O)CNC(=O)CNC(=O)CSC(C)=O)C(C)C)C(N)=O [technetium-99m labelled] |  | nude mouse, PC-3 xenograft, muscle | 30 min |  | tissue uptake | 0.27 ± 0.09 %ID/g
N=C(N)NCCC[C@@H]1NC(=O)[C@H](CCCCNC(=O)CC[C@H](NC(=O)CCOCCOCCOCCOCCNC(=O)CN2CCN(CC(=O)O)CCN(CC(=O)O)CCN(CC(=O)O)CC2)C(=O)NCCCC[C@@H]2NC(=O)[C@@H](Cc3ccccc3)NC(=O)[C@H](CC(=O)O)NC(=O)CNC(=O)[C@H](CCCNC(=N)N)NC2=O)NC(=O)[C@@H](Cc2ccccc2)NC(=O)[C@H](CC(=O)O)NC(=O)CNC1=O [indium-111 labelled] |  | female athymic nude mouse | intravenous, 3 µCi, 4 h, U-87 MG glioma xenograft | reference: tumour over muscle | tumour to muscle ratio | 6.88 ± 0.87
CC(C)C[C@H](NC(=O)C[C@H](O)[C@H](CC(C)C)NC(=O)[C@H](Cc1c[nH]cn1)NC(=O)CNC(=O)[C@@H](NC(=O)[C@H](C)NC(=O)[C@H](Cc1c[nH]c2ccccc12)NC(=O)[C@H](CCC(N)=O)NC(=O)[C@@H](Cc1ccccc1)NC(=O)c1ccc(NC(=O)CNC(=O)CCC(C(=O)O)N2CCN(CC(=O)O)CCN(CC(=O)O)CC2)cc1)C(C)C)C(N)=O (some centres unmarked) [fluorine-18 labelled] | PET imaging | mouse, PC-3 xenograft | intravenous, 2 h, 18F-labelled |  | tumour uptake | 3.9 ± 0.48 %ID/g
CC(C)C[C@H](NC(=O)[C@@H]1CCCN1C(=O)[C@H](CCCCN)NC(=O)[C@@H](N)CO)C(=O)N1CCC[C@H]1C(=O)N[C@@H](CCC(=O)O)C(=O)N[C@H](C(=O)N[C@H](C(=O)N[C@@H](CC(=O)O)C(=O)N[C@@H](CCC(=O)O)C(=O)N[C@@H](Cc1ccc(O)cc1)C(=O)N[C@@H](Cc1cn(CCOCCOCCOCCNC(=O)CCc2ccc(O)c(CN(CCN(CC(=O)O)Cc3cc(CCC(=O)NCCCC[C@H](NC(=O)N[C@@H](CCC(=O)O)C(=O)O)C(=O)O)ccc3O)CC(=O)O)c2)nn1)C(=O)O)[C@@H](C)O)C(C)C [gallium-68 labelled] |  | NMRI nu/nu mice, LNCaP tumour, muscle | 10 MBq, high molar activity |  | standardized uptake value | 0.04 g/g
N=C(N)NCCC[C@H](NC(=O)[C@H](CCCCN)NC(=O)[C@H](CCC(N)=O)NC(=O)CCOCCOCCOCCNC(=O)CN1CCN(CC(=O)O)CCN(CC(=O)O)CCN(CC(=O)O)CC1)C(=O)N[C@@H](CCCCN)C(=O)N[C@@H](CCCNC(=N)N)C(=O)N[C@@H](CCCCN)C(=O)N[C@@H](CCCCN)C(=O)N[C@@H](CO)C(=O)N[C@@H](CCCNC(=N)N)C(=O)N[C@@H](Cc1ccc(O)cc1)C(=O)N[C@@H](CCCCN)C(=O)N[C@@H](CO)C(=O)O [copper-64 labelled] |  | C57BL/6 Jms mouse, male, B16-F10 melanoma, tumour and blood | intravenous, 60 min | reference: tumour over blood | tumour-to-blood ratio | 5.11 ± 1.02
CCCC[C@H](NC(=O)CNC(=O)CNC(=O)CNC(=O)c1ccc(NN)nc1)C(=O)N[C@H]1CC(=O)NCCCC[C@@H](C(N)=O)NC(=O)[C@H](Cc2c[nH]c3ccccc23)NC(=O)[C@H](CCCNC(=N)N)NC(=O)[C@@H](Cc2ccccc2)NC(=O)[C@H](Cc2c[nH]cn2)NC1=O [technetium-99m labelled] |  | C57 mouse, B16/F1 melanoma | 2 h | reference: tumour over blood | uptake ratio | 148
N=C(N)NCCC[C@@H]1NC(=O)[C@H](CCCCNC(=O)CNC(=O)CNC(=O)CNC(=O)CC[C@H](NC(=O)CCOCCOCCOCCOCCNC(=O)CC[C@H](NC(=O)CN2CCN(CC(=O)O)CCN(CC(=O)O)CCN(CC(=O)O)CC2)C(=O)NCCOCCOCCOCCOCCC(=O)N[C@@H](CCC(=O)NCC(=O)NCC(=O)NCC(=O)NCCCC[C@@H]2NC(=O)[C@@H](Cc3ccccc3)NC(=O)[C@H](CC(=O)O)NC(=O)CNC(=O)[C@H](CCCNC(=N)N)NC2=O)C(=O)NCC(=O)NCC(=O)NCC(=O)NCCCC[C@@H]2NC(=O)[C@@H](Cc3ccccc3)NC(=O)[C@H](CC(=O)O)NC(=O)CNC(=O)[C@H](CCCNC(=N)N)NC2=O)C(=O)NCC(=O)NCC(=O)NCC(=O)NCCCC[C@@H]2NC(=O)[C@@H](Cc3ccccc3)NC(=O)[C@H](CC(=O)O)NC(=O)CNC(=O)[C@H](CCCNC(=N)N)NC2=O)NC(=O)[C@@H](Cc2ccccc2)NC(=O)[C@H](CC(=O)O)NC(=O)CNC1=O [indium-111 labelled] |  | athymic nude mice, female, U-87 MG glioma xenograft, tumour and kidney | intravenous, 1 h | reference: tumour over kidney | tumour to tissue ratio | 1.84 ± 0.26
N=C(N)NCCC[C@@H]1NC(=O)[C@H](CCCCNC(=O)CCc2cn(CCC[C@@H]3O[C@H](COC(=O)NCCNC(=O)CN4CCN(CC(=O)O)CCN(CC(=O)O)CCN(CC(=O)O)CC4)[C@@H](O)[C@H](O)[C@H]3O)nn2)NC(=O)[C@@H](Cc2ccccc2)NC(=O)[C@H](CC(=O)O)NC(=O)CNC1=O [gallium-68 labelled] | PET | female NMRI nu/nu mice, U-87 MG xenograft, tumour | intravenous, 10 MBq, hour 2 of recording |  | SUVmean | 0.21 ± 0.04 SUV
N=C(N)NCCC[C@@H]1NC(=O)[C@H](CCCCNC(=O)CCOCCOCCOCCOCCNC(=O)CN2CCN(CC(=O)O)CCN(CC(=O)O)CCN(CC(=O)O)CC2)NC(=O)[C@@H](Cc2ccccc2)NC(=O)[C@H](CC(=O)O)NC(=O)CNC1=O [indium-111 labelled] |  | female athymic nude mouse, U-87 MG tumour | intravenous, 3 µCi, 0.5 h, U-87 MG glioma xenograft |  | tumour uptake | 3.7 %ID/g
CCCC[C@H](NC(=O)CNC(=O)CNC(=O)c1ccc(NN)nc1)C(=O)N[C@H]1CC(=O)NCCCC[C@@H](C(N)=O)NC(=O)[C@H](Cc2c[nH]c3ccccc23)NC(=O)[C@H](CCCNC(=N)N)NC(=O)[C@@H](Cc2ccccc2)NC(=O)[C@H](Cc2c[nH]cn2)NC1=O [technetium-99m labelled] |  | C57 mouse, B16/F1 melanoma-bearing | intravenous, 2 h | reference: tumour over muscle | tissue uptake ratio | 354
CC(C)C[C@@H]1NC(=O)[C@H](C(C)C)NC(=O)[C@H](CO)NC(=O)CNC(=O)CNC(=O)[C@H](CCCNC(=N)N)NC(=O)[C@@H]2CCCN2C(=O)[C@@H](NC(=O)CC[C@H](NC(=O)c2ccc(N(C)Cc3cnc4nc(N)nc(N)c4n3)cc2)C(=O)O)C(C)(C)SSC[C@@H](C(=O)O)NC(=O)CNC(=O)[C@H]([C@@H](C)O)NC(=O)[C@H](C(C)C)NC1=O | pH-rate profile inflection |  | 70 °C |  | pKa amino group | 8.9
CCCC[C@H](NC(=O)CCCCCCCNC(=O)c1ccc(NN)nc1)C(=O)N[C@H]1CC(=O)NCCCC[C@@H](C(N)=O)NC(=O)[C@H](Cc2c[nH]c3ccccc23)NC(=O)[C@H](CCCNC(=N)N)NC(=O)[C@@H](Cc2ccccc2)NC(=O)[C@H](Cc2c[nH]cn2)NC1=O [technetium-99m labelled] |  | C57 mouse, B16/F1 melanoma, lung | 2 h, added: L-lysine 12 mg co-injected |  | tissue uptake | 0.59 ± 0.06 %ID/g
N=C(N)NCCC[C@@H]1NC(=O)[C@H](CCCCNC(=O)CC[C@H](NC(=O)CCOCCOCCOCCOCCNC(=O)CC[C@H](NC(=O)CN2CCN(CC(=O)O)CCN(CC(=O)O)CCN(CC(=O)O)CC2)C(=O)NCCOCCOCCOCCOCCC(=O)N[C@@H](CCC(=O)NCCCC[C@@H]2NC(=O)[C@@H](Cc3ccccc3)NC(=O)[C@H](CC(=O)O)NC(=O)CNC(=O)[C@H](CCCNC(=N)N)NC2=O)C(=O)NCCCC[C@@H]2NC(=O)[C@@H](Cc3ccccc3)NC(=O)[C@H](CC(=O)O)NC(=O)CNC(=O)[C@H](CCCNC(=N)N)NC2=O)C(=O)NCCCC[C@@H]2NC(=O)[C@@H](Cc3ccccc3)NC(=O)[C@H](CC(=O)O)NC(=O)CNC(=O)[C@H](CCCNC(=N)N)NC2=O)NC(=O)[C@@H](Cc2ccccc2)NC(=O)[C@H](CC(=O)O)NC(=O)CNC1=O [indium-111 labelled] |  | athymic nude mice, female, U-87 MG glioma xenograft, tumour and blood | intravenous, 72 h | reference: tumour over blood | tumour to tissue ratio | 192 ± 172
Cc1ncsc1-c1ccc(CNC(=O)[C@@H]2C[C@@H](OC(=O)OCCSSCCn3cc(CCCC(=O)N[C@@H](Cc4ccc(O)cc4)C(=O)N[C@@H](CCCNC(=N)N)C(=O)N[C@@H](CCCNC(=N)N)C(=O)N[C@@H](CCCNC(=N)N)C(=O)N[C@@H](CCCNC(=N)N)C(=O)N[C@@H](CCCNC(=N)N)C(=O)N[C@@H](CCCNC(=N)N)C(=O)N[C@@H](CCCNC(=N)N)C(=O)N[C@@H](CCCNC(=N)N)C(=O)N[C@@H](CCCNC(=N)N)C(N)=O)nn3)CN2C(=O)[C@@H](NC(=O)COCCOCCOCCNC(=O)C[C@@H]2N=C(c3ccc(Cl)cc3)c3c(sc(C)c3C)-n3c(C)nnc32)C(C)(C)C)cc1 | UHPLC | PBS | 100 nM, 0 h, 37 °C, added: 5 mM glutathione | reference: total peak area | released payload | 0%
